Measured values of several laboratories.
Lines come from different studies, so protocols differ. Several values in a cell are separate wells, animals, samples, runs or records. ± gives the spread as reported.

For `Cc1ccc([C@@H]2O[C@H](CO)[C@@H](O)[C@H](O)[C@H]2O)cc1Cc1ccc(-c2ccc(F)cc2)s1`, the Cmax was 867 ng/mL (human, maintenance hemodialysis patients; oral, 100 mg once daily, steady state, median).
`CNC(=O)c1cc(Oc2ccc(NC(=O)Nc3ccc(Cl)c(C(F)(F)F)c3)cc2)ccn1` has a Cmax of 9760 ng/mL (human patients, plasma; oral, 400 mg twice daily, steady state, geometric mean, added: rifampin 600 mg oral).
With `O=C(O)CCC(=O)O.[2H]C([2H])([2H])Oc1cc(C)c2[nH]ccc2c1CN1CC[C@@H](C2CC2)C[C@H]1c1ccc(C(=O)O)cc1` the Cmax was 990 ng/mL (LC-MS/MS, geometric mean; human, plasma; 50 mg, single dose, fasting).
`Cc1ncnc2c1ccn2[C@@H]1C[C@H](Oc2cc(C(F)F)c(F)c3c2CNCC3)[C@@H](O)[C@H]1O` has a Cmax of 24.6 ng/mL and 29.1 ng/mL (human; oral, 2 mg twice daily).
The Cmax of `N[C@](CO)(CCc1ccc(Sc2cccc(OCc3ccccc3)c2)cc1Cl)COP(=O)(O)O` is reported as 1.28 ng/mL (human, fed, whole blood; 3 mg, geometric mean, alone).
With `Cn1ncnc1[C@H]1c2n[nH]c(=O)c3cc(F)cc(c23)N[C@@H]1c1ccc(F)cc1` the Cmax was 16.4 ng/mL (human patients, plasma; oral, 600 µg/m2 twice daily day 1, day 5, dose level DL3, median, added: temozolomide 20 mg/m2 daily days 2-6).
For `COc1ccc(F)cc1C(=O)NCc1ccc(-c2nn([C@@H](C)C(F)(F)F)c(N)c2C(N)=O)cc1`, the Cmax was 7220 ng/mL (human, plasma; oral, 200 mg once daily, added: oral repaglinide).
The Cmax of `Cn1cncc1[C@@](N)(c1ccc(Cl)cc1)c1ccc2c(c1)c(-c1cccc(Cl)c1)cc(=O)n2C` is reported as 251 ng/mL (healthy human subjects, plasma; oral, 100 mg, fed (high-fat meal)).
For `COc1ccc([C@@H](O)c2cc(-c3ncnc4cc(N5CCOCC5)ccc34)c(F)cc2Cl)nn1`, the Cmax was 456 ng/mL (healthy human volunteers, plasma; oral, 100 mg single dose, oral suspension, fasted, geometric mean).
The Cmax of `CC(=O)N1CCN(c2ccc(OCC3COC(Cn4ccnc4)(c4ccc(Cl)cc4Cl)O3)cc2)CC1` (centres unmarked) is reported as 4780 ng/mL (healthy humans, both sexes, plasma; oral, 200 mg twice daily, compound alone).
`CC(C)(C(=O)N1CCOc2c(C#N)cncc2C1)C(F)F` gave a Cmax of 268 ng/mL (humans, both sexes, plasma; oral, 15 mg twice daily, day 14, geometric mean).
With `CN1CC[C@@H](c2c(O)cc(O)c3c(=O)cc(-c4ccc(C(F)(F)F)cc4Cl)oc23)[C@@H]1CO` the Cmax was 172 ng/mL (noncompartmental; human patients, plasma; oral, 100 mg intermittent, cycle 1, after day 1).
With `N[C@]1(C(=O)O)[C@H]2[C@@H](C[C@@H]1F)[C@@H]2C(=O)O` the Cmax was 88.5 ng/mL (human, both sexes, plasma; oral, 20 mg, fasted, single dose).
`Fc1ccc([C@@H]2CCNC[C@H]2COc2ccc3c(c2)OCO3)cc1` has a Cmax of 49 ng/mL (human, CYP2D6 poor metabolizers; oral, 20 mg, steady state, geometric mean).
`N[C@@H]1c2cccnc2[C@H](OC(=O)N2CCC(n3c(=O)[nH]c4ncccc43)CC2)CC[C@H]1c1cccc(F)c1F` has a Cmax of 953 ng/mL (human, plasma; oral, dose not given, single dose, geometric LS mean, added: fluconazole).
For `CCN(CC)CCNC(=O)c1c(C)[nH]c(/C=C2\C(=O)Nc3ccc(F)cc32)c1C`, the Cmax was 24.6 ng/mL (human, mild hepatic impairment (NCI), plasma; single dose, geometric mean, total drug).
The Cmax of `O=C(O)CCCCCCCCCCC(=O)O` is reported as 79.7 ± 10.7 nM (human, plasma; concentration not given, endogenous baseline diurnal).
For `Cc1cc(-c2nccc3c2ccn3CC(=O)Nc2ccc(-c3cnccn3)cn2)ccn1`, the Cmax was 186 nM (human, plasma; oral, 20 mg once daily, day 1, geometric mean).
`N[C@@H](CC(=O)N1CCn2c(nnc2C(F)(F)F)C1)Cc1cc(F)c(F)cc1F` gave a Cmax of 499 ± 128 ng/mL (female human, plasma; oral, 100 mg single dose).
With `C[C@H](Oc1ccc(Br)cc1-c1ccon1)C(=O)O` the Cmax was 19600 ng/mL (LC-MS/MS, non-compartmental; human, plasma; 400 mg once daily, day 10, multiple ascending dose, mean).

Some of these lines once more:
`Fc1ccc([C@@H]2CCNC[C@H]2COc2ccc3c(c2)OCO3)cc1` has a Cmax of 49 ng/mL (human, CYP2D6 poor metabolizers; oral, 20 mg, steady state, geometric mean).
The Cmax of `CC(=O)N1CCN(c2ccc(OCC3COC(Cn4ccnc4)(c4ccc(Cl)cc4Cl)O3)cc2)CC1` (centres unmarked) is reported as 4780 ng/mL (healthy humans, both sexes, plasma; oral, 200 mg twice daily, compound alone).
`Cc1ncnc2c1ccn2[C@@H]1C[C@H](Oc2cc(C(F)F)c(F)c3c2CNCC3)[C@@H](O)[C@H]1O` has a Cmax of 24.6 ng/mL and 29.1 ng/mL (human; oral, 2 mg twice daily).
